Published values of several laboratories.
Lines come from different studies, so protocols differ. Several values in a cell are separate wells, animals, samples, runs or records.
CA2: Carbonic anhydrase 2 (CA2, Homo sapiens, UniProt P00918)
TMPRSS13: TMPRSS13 (Homo sapiens, UniProt Q9BYE2)
UniProt Q9BYE2, sequence (whole entry, looked up): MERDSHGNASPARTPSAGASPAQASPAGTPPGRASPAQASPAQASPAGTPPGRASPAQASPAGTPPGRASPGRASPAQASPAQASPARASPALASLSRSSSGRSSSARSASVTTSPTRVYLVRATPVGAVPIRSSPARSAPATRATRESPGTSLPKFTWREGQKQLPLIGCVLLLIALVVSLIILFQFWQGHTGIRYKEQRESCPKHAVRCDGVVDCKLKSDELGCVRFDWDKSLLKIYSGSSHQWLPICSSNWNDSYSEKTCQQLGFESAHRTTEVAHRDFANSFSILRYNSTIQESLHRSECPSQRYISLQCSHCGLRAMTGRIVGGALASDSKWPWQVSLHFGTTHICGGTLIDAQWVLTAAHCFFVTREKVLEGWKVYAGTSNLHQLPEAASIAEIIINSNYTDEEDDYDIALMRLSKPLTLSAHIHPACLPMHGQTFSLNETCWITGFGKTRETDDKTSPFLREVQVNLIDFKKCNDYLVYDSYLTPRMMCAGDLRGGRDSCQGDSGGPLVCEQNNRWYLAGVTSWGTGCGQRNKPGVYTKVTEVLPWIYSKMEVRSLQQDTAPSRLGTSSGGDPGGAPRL
TMEM97: Sigma intracellular receptor 2 (TMEM97, Homo sapiens, UniProt Q5BJF2)
UniProt Q5BJF2, sequence (whole entry, looked up): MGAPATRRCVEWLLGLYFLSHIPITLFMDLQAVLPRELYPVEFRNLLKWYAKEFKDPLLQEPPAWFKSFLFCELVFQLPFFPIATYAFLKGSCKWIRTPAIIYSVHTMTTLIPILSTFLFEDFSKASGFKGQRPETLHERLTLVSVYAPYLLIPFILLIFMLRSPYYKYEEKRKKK
PFF0160c E182D: Dihydroorotate dehydrogenase (quinone), mitochondrial (PFF0160c, Plasmodium falciparum, UniProt Q08210, E182D)
CA1: Carbonic anhydrase 1 (CA1, Homo sapiens, UniProt P00915)
UniProt P00915, sequence (whole entry, looked up): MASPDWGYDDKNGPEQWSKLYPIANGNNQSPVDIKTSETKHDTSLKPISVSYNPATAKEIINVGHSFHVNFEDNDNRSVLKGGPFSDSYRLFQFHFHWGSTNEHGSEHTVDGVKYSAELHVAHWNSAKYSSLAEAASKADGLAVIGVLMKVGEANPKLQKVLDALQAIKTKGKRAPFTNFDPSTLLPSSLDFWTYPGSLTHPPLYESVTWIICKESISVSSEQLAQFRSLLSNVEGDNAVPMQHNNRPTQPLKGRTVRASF
HTR2C: 5-hydroxytryptamine receptor 2C (HTR2C, Homo sapiens, UniProt P28335)
UniProt P00747, sequence (whole entry, looked up): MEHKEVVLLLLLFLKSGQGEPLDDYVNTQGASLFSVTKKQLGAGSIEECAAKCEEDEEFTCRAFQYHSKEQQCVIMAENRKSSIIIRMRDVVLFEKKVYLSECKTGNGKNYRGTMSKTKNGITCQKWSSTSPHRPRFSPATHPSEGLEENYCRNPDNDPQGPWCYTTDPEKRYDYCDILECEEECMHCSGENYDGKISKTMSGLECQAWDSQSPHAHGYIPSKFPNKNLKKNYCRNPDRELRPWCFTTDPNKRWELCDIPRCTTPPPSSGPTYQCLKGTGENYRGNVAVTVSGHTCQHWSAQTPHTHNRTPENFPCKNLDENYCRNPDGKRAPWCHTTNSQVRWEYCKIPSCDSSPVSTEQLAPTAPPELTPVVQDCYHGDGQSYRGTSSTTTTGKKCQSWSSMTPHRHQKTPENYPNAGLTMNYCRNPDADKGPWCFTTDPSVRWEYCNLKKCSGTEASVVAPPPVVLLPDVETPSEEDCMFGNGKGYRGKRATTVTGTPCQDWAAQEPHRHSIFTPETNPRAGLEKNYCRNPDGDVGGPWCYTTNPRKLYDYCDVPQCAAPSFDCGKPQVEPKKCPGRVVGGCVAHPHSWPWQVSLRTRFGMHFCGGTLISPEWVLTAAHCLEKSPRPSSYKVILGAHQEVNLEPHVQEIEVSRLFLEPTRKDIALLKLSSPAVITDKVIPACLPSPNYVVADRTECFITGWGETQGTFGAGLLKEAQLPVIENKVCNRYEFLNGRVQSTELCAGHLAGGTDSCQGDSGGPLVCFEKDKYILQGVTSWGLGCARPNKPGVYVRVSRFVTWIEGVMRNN
UniProt P28335, sequence (whole entry, looked up): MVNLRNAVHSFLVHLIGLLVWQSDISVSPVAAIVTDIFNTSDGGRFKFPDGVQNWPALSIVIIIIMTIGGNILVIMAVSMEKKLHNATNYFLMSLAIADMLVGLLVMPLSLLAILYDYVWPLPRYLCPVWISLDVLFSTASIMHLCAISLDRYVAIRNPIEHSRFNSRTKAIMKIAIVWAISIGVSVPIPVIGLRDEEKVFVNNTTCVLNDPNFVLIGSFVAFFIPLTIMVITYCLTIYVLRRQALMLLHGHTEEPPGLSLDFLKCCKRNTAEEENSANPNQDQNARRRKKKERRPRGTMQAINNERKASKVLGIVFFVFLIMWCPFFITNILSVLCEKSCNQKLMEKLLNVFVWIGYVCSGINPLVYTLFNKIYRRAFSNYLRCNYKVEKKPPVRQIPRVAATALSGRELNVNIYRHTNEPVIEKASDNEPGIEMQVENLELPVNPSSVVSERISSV
UniProt P09958, sequence (whole entry, looked up): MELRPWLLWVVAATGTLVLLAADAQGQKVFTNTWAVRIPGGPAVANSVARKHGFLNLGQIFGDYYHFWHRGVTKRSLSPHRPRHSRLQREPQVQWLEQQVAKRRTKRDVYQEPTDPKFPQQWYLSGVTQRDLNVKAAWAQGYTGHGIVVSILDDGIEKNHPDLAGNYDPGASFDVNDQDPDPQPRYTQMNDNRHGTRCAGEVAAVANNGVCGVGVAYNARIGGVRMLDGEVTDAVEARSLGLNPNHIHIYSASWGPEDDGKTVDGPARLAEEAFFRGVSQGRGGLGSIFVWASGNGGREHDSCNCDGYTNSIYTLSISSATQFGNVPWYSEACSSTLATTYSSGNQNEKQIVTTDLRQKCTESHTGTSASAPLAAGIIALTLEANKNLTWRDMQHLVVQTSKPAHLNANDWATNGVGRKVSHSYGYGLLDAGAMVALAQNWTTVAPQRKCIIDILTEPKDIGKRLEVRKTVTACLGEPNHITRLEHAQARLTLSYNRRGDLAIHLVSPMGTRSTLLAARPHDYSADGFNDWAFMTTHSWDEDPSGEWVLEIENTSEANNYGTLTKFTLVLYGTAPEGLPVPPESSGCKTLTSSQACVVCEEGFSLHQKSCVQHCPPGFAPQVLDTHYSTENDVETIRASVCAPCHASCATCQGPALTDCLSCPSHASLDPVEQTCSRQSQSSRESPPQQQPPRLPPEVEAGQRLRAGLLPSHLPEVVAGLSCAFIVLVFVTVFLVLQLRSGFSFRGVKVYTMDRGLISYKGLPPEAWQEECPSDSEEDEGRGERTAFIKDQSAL
UniProt P22303, sequence (whole entry, looked up): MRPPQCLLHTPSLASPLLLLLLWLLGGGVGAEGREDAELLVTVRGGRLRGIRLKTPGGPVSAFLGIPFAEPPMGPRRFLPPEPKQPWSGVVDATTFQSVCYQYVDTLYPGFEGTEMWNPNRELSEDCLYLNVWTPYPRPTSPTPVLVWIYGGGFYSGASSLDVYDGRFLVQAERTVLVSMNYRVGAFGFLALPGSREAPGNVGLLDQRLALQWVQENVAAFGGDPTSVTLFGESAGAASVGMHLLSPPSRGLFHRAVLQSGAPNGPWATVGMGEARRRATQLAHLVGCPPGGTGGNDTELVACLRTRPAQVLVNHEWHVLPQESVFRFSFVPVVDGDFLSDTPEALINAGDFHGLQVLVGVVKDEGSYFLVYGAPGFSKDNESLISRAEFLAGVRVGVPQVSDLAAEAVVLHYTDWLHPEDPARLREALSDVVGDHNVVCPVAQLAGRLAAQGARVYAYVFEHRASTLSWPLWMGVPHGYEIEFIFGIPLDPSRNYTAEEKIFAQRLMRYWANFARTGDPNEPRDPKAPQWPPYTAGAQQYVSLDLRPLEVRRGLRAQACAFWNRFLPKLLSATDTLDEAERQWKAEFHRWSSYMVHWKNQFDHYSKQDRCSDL
UniProt Q8WXR4, sequence (whole entry, looked up): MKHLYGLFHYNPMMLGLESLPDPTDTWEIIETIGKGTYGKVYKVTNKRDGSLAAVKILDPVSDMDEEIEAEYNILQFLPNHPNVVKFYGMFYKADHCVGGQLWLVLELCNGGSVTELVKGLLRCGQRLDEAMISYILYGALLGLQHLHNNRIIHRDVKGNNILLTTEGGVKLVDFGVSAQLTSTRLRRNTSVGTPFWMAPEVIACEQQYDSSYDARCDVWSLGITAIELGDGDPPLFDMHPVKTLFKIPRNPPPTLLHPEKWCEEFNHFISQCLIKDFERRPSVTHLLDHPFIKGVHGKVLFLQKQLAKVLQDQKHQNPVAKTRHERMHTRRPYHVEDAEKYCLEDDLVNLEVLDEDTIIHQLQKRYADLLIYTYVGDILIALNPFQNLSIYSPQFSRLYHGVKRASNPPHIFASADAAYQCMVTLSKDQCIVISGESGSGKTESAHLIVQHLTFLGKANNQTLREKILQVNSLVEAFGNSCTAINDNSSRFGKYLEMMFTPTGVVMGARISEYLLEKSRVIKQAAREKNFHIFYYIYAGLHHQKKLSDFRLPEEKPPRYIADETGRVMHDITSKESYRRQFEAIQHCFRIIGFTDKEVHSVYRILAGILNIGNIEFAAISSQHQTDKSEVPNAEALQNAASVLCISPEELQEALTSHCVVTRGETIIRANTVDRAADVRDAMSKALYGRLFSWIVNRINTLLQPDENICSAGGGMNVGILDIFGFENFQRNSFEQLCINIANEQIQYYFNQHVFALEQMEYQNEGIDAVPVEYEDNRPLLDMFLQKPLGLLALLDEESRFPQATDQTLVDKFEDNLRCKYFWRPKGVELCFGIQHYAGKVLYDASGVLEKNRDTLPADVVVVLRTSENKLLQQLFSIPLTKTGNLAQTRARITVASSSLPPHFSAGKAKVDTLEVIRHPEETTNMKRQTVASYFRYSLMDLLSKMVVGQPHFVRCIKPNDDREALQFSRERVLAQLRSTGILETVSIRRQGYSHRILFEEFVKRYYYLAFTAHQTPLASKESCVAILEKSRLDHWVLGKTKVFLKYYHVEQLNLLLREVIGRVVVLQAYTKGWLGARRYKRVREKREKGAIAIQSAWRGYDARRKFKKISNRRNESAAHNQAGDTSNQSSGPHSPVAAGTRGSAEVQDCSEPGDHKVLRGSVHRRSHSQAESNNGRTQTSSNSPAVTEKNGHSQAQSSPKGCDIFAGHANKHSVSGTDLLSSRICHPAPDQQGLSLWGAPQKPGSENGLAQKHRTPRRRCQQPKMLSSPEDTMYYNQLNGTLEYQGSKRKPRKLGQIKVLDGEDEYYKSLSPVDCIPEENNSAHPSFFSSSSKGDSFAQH

O=C(Nc1ccc(Cl)cc1)Nc1ccc2c(c1)C=CCP(=O)(O)O2  Ki (CA2; enzyme activity, inhibitor, stopped-flow): > 10 µM
CC(C)(C)[C@H](NC(=O)[C@H](CCCNC(=N)N)NC(=O)Cc1ccc(CNC(=N)N)cc1)C(=O)N[C@@H](CCCCN)C(=O)NCc1ccc(C(=N)N)cc1  Ki (Plasminogen, trypsin-like site (PLG, Homo sapiens, UniProt P00747); enzyme activity, inhibitor; pH 8): 8.8 µM and > 3 µM
N=C(N)NCCC[C@H](NC(=O)[C@H](Cc1ccccc1)NC(=O)[C@H](CCC(N)=O)NC(=O)OCc1ccccc1)C(=O)c1nccs1  Ki (TMPRSS13; cell-free assay): 0.09 µM
CN(C)CCOC(c1ccccc1)c1ccccc1  Ki (TMEM97; ligand displacement, radioligand): 2 µM
CCSc1nnc(C2CCCN(CC(=O)Nc3cc(C(F)(F)F)ccc3Cl)C2)n1CC (stereo not shown)  IC50 (PFF0160c E182D; enzyme activity, inhibitor, absorbance): 1.09 µM
CS(=O)(=O)N[C@@H](CCC(N)=O)C(=O)N[C@@H](Cc1ccccc1)C(=O)N[C@@H](CCCNC(=N)N)C(=O)c1nccs1  Ki (Furin (FURIN, Homo sapiens, UniProt P09958); cell-free assay): > 10 µM
O=C(Nc1ccc2c(c1)C=CCP(=O)(O)O2)c1ccco1  Ki (CA1; enzyme activity, inhibitor, stopped-flow): > 10 µM
Nc1ncc(-c2nc(N3CCOCC3)nc(N3CCOCC3)n2)c(C(F)F)n1  remaining binding (Myosin-IIIb (MYO3B, Homo sapiens, UniProt Q8WXR4); binding, competition with immobilised ligand; 10 µM): 99%
CC(C)c1cc2c(c(O)c1O)[C@@]13CCCC(C)(C)[C@@H]1C[C@@H]2OC3=O  Ki (Acetylcholinesterase (ACHE, Homo sapiens, UniProt P22303); enzyme activity, inhibitor): 0.0013 µM
COc1cc2c(cc1OC)CN(CCc1ccc(NC(=O)c3cccc4c(=O)c5cccc(OC)c5[nH]c34)cc1)CC2  Ki (5-hydroxytryptamine receptor 6 (HTR6, Homo sapiens, UniProt P50406); cell-free assay): > 10 µM
COc1ccc(C(=O)Nc2ccc3c(c2)C=CCP(=O)(O)O3)cc1  Ki (CA2; enzyme activity, inhibitor, stopped-flow): > 10 µM
[2H]c1c([2H])c([C@]2([2H])CCCN2C(=O)C(C)(C)Oc2ccc3cn[nH]c3c2)c([2H])c([2H])c1C([2H])([2H])[2H]  remaining binding (Serine/threonine-protein kinase TAO2 (TAOK2, Homo sapiens, UniProt Q9UL54); binding, competition with immobilised ligand; 1 µM): 94%
CC(C)[C@@H](Nc1nc(Cl)nc2c1ncn2[C@H]1[C@H](O)[C@H](O)[C@]2(CN=[N+]=[N-])C[C@H]12)C1CC1  Ki (HTR2C; ligand displacement, radioligand): 2.91 µM
CCOP1(=O)CC=Cc2cc(N)ccc2O1 (stereo not shown)  Ki (CA2; enzyme activity, inhibitor, stopped-flow): > 10 µM
OCCN1CCN(CCCN2c3ccccc3Sc3ccc(C(F)(F)F)cc32)CC1  Ki (TMEM97; ligand displacement, radioligand): 0.0666 µM
OC[C@@]12C[C@@H]1[C@@H](n1cnc3c(NCc4ccccc4)nc(Cl)nc31)[C@H](O)[C@@H]2O  Ki (HTR2C; ligand displacement, radioligand): 0.326 µM
COc1cc2nc(N3CCCN(C)CC3)nc(NC3CCN(Cc4ccccc4)CC3)c2cc1OC  Ki (TMEM97; ligand displacement, radioligand): > 10 µM
COc1cccc(NC(=O)Nc2ccc3c(c2)C=CCP(=O)(O)O3)c1  Ki (CA2; enzyme activity, inhibitor, stopped-flow): > 10 µM
OCCOCCN1CCN(C(c2ccccc2)c2ccc(Cl)cc2)CC1 (stereo not shown)  Ki (TMEM97; ligand displacement, radioligand): 1.34 µM
C[C@H](NC(=O)[C@H](CCC(N)=O)NC(=O)CCCCNC(=N)N)C(=O)N[C@@H](CCCNC(=N)N)C(=O)c1nc2ccccc2s1  Ki (Procathepsin L (CTSL, Homo sapiens, UniProt P07711); cell-free assay): > 10 µM
CN(C)CC[C@@H](c1ccc(Cl)cc1)c1ccccn1  Ki (TMEM97; ligand displacement, radioligand): 4.87 µM
CC1Oc2cc3c(-c4c(O)cc(O)c5c(O)c6c(cc45)OC(C)C(C)C6=O)c(O)cc(O)c3c(O)c2C(=O)C1C (stereo not shown)  Ki (Replicase polyprotein 1ab, main protease (Feline coronavirus, UniProt Q98VG9); enzyme activity, inhibitor, fluorescence): 3.69 µM
N=C(N)NCCC[C@H](NC(=O)[C@H](Cc1ccccc1)NC(=O)[C@@H]1CCCN1C(=O)[C@H](CO)NC(=O)[C@@H]1CCCN1C(=O)[C@@H](N)Cc1ccccc1)C(=O)O  Ki (Angiotensin-converting enzyme (ACE, Oryctolagus cuniculus, UniProt P12822); enzyme activity, inhibitor): 8750 µM
N.N.[Cl][Pt][Cl]  inhibition (CCRF-CEM; cell growth or viability, ATP luminescence; 10 µM, 72 h): 100%
O=C(Nc1ccc2c(c1)C=CCP(=O)(O)O2)c1ccccc1Br  Ki (CA1; enzyme activity, inhibitor, stopped-flow): > 10 µM
CCOC(=O)N[C@@H](CCCNC(=N)N)C(=O)N[C@@H](CCC(N)=O)C(=O)N[C@@H](Cc1ccccc1)C(=O)N[C@@H](CCCNC(=N)N)C(=O)c1nc2ccccc2s1  Ki (Suppressor of tumorigenicity 14 protein (ST14, Homo sapiens, UniProt Q9Y5Y6); cell-free assay): 0.00098 µM
COC(=O)C1(c2ccc(C)cc2)CC1CN1CCC(O)(c2ccccc2)CC1 (stereo not shown)  Ki (TMEM97; ligand displacement, radioligand): 0.303 µM
Cc1nn(C)cc1-c1nc2c(N3CCN(Cc4ccc(Cl)cc4)CC3)c(Cl)cnc2[nH]1  remaining binding (Mitogen-activated protein kinase kinase kinase 1 (MAP3K1, Homo sapiens, UniProt Q13233); binding, competition with immobilised ligand; 1 µM): 100%
COc1ccc(Cl)c2c1NC(=O)C2NC(C)=O (stereo not shown)  IC50 (PFF0160c E182D; enzyme activity, inhibitor, absorbance): > 10 µM
COCCC(=O)N[C@@H](CCC(N)=O)C(=O)N[C@@H](Cc1ccccc1)C(=O)N[C@@H](CCCNC(=N)N)C(=O)c1nc2ccccc2s1  Ki (TMPRSS13; cell-free assay): 0.137 µM
Cc1nccn1CC1CCc2c(c3ccccc3n2C)C1=O (stereo not shown)  Ki (TMEM97; ligand displacement, radioligand): > 10 µM
O=C(Nc1ccc(I)cc1)Nc1ccc2c(c1)C=CCP(=O)(O)O2  Ki (CA1; enzyme activity, inhibitor, stopped-flow): > 10 µM
Fc1ccc(C(OCCN2CCN(CCCc3ccccc3)CC2)c2ccc(F)cc2)cc1  Ki (TMEM97; ligand displacement, radioligand): 0.199 µM
O=C(Nc1cccc(Cl)c1)Nc1ccc2c(c1)C=CCP(=O)(O)O2  Ki (CA2; enzyme activity, inhibitor, stopped-flow): > 10 µM

For quick reference, copied from above:
CS(=O)(=O)N[C@@H](CCC(N)=O)C(=O)N[C@@H](Cc1ccccc1)C(=O)N[C@@H](CCCNC(=N)N)C(=O)c1nccs1  Ki (Furin (FURIN, Homo sapiens, UniProt P09958); cell-free assay): > 10 µM
OCCN1CCN(CCCN2c3ccccc3Sc3ccc(C(F)(F)F)cc32)CC1  Ki (TMEM97; ligand displacement, radioligand): 0.0666 µM
OCCOCCN1CCN(C(c2ccccc2)c2ccc(Cl)cc2)CC1 (stereo not shown)  Ki (TMEM97; ligand displacement, radioligand): 1.34 µM
CCSc1nnc(C2CCCN(CC(=O)Nc3cc(C(F)(F)F)ccc3Cl)C2)n1CC (stereo not shown)  IC50 (PFF0160c E182D; enzyme activity, inhibitor, absorbance): 1.09 µM
COC(=O)C1(c2ccc(C)cc2)CC1CN1CCC(O)(c2ccccc2)CC1 (stereo not shown)  Ki (TMEM97; ligand displacement, radioligand): 0.303 µM
